Measured values gathered from unrelated publications.
± gives the spread as reported.
MAOA: Amine oxidase [flavin-containing] A (MAOA, Homo sapiens, UniProt P21397)
fabG: 3-oxoacyl-[acyl-carrier-protein] reductase FabG (fabG, Pseudomonas aeruginosa, UniProt O54438)
TST: Thiosulfate sulfurtransferase (TST, Bos taurus, UniProt P00586)
ORF1 3C-like protease: Genome polyprotein, 3C-like protease (ORF1, Hu/NV/NV/1968/US, UniProt Q83883)

O=C(Nc1ccccc1Cl)c1ccc2c(c1)C(=O)NC2=O — IC50 (MAOA): > 40 µM
O=C(O)c1ccc(NS(=O)(=O)c2ccc(Cl)c(Cl)c2)cc1F — IC50 (Estradiol 17-beta-dehydrogenase 11 (Homo sapiens, UniProt Q8NBQ5); enzyme activity, inhibitor; with: 20-HETE ethanolamide substrate): > 100 µM
Cn1ncc2c(N3CCCCC3)nc(Nc3ccccc3)nc21 — IC50 (fabG; enzyme activity, inhibitor, NADPH fluorescence; reverse reaction, geometric mean, with: 3-OH-decanoyl-NAC, NADP): 2.9 µM
O=c1ccc2ccccc2o1 — IC50 (uncharacterized protein (Drosophila suzukii, UniProt A0AB39ZCT4); binding, bis-ANS competition fluorescence; pH 7.4, with: bis-ANS): 13.6 µM
CN1CCN(c2ccc(Nc3ncc4cc(C#N)c(=O)n(C5CCCC5)c4n3)cc2)CC1 — IC50 (PKN2 (Homo sapiens, UniProt Q16513)): > 10 µM
CC/C=C\CCO — IC50 (uncharacterized protein (Bradysia odoriphaga, UniProt A0A2S0X9G4); binding, competitive fluorescence displacement; pH 7.4): > 50 µM
Cc1cnc(-c2ccc(-c3ccc(NC(=O)Nc4c(F)cc(F)cc4F)cc3F)c3c2C(=O)NC3)[nH]1 — IC50 (BMX (Homo sapiens, UniProt P51813); enzyme activity, inhibitor, mobility shift; with: ATP 1 mM): 0.0091 µM
O=C1C[C@@H](c2ccc(O)cc2)Oc2cc(O)cc(O)c21 — IC50 (uncharacterized protein (Drosophila suzukii, UniProt A0AB39ZCT4); binding, bis-ANS competition fluorescence; pH 7.4, with: bis-ANS): 42.1 µM
Cc1cc(N)c2c(C)nn(-c3ccccc3)c2n1 — IC50 (fabG; enzyme activity, inhibitor, NADPH fluorescence; reverse reaction, geometric mean, with: 3-OH-decanoyl-NAC, NADP): 2.3 µM
CC(C)(C)c1nc(-c2ccc(NC(=O)Nc3cccc(C(F)(F)F)c3)c3ccccc23)c2c(N)nccn12 — IC50 (ERN1 (Homo sapiens, UniProt O75460); RNase activity, inhibitor, FRET suppression; 90 min preincubation, with: XBP1 RNA substrate): 19.7 µM
C=C(C)[C@H]1CC=C(C)CC1 — IC50 (uncharacterized protein (Bradysia odoriphaga, UniProt A0A2S0X9G4); binding, competitive fluorescence displacement; pH 7.4): > 50 µM
Cc1cc(S(=O)(=O)NCCO[C@H]2CC[C@H](CN3CCC(c4ccn5c(N6CCC(=O)NC6=O)cnc5c4)CC3)CC2)ccc1Nc1ncc2cc(Cl)c(=O)n(C3CCCC3)c2n1 — IC50 (Cyclin-dependent kinase 1, with cyclin B1 (CDK1, Homo sapiens, UniProt P06493); enzyme activity, inhibitor; with: ATP 100 µM): 0.1 µM
COc1ccc2c(c1)CN(C(=O)CCN1CCC(Cc3ccccc3)CC1)CC[S@@+]2[O-] — IC50 (Potassium voltage-gated channel subfamily KQT member 1, with KCNE1 (KCNQ1, Homo sapiens, UniProt P51787); IKs current, inhibitor, whole-cell patch clamp; stable cell line): > 100 µM
O=C(O)C1=CC(=C(c2ccc(O)c(C(=O)O)c2)c2ccc(O)c(C(=O)O)c2)C=CC1=O — IC50 (P2X purinoceptor 3 (P2RX3, Homo sapiens, UniProt P56373); ion current, antagonist, patch clamp; HEK293; with: ATP4- 1 µM): 0.592 ± 0.088 µM
c1ccc2[nH]ccc2c1 — IC50 (uncharacterized protein (Bradysia odoriphaga, UniProt A0A2S0X9G4); binding, competitive fluorescence displacement; pH 7.4): > 50 µM
CC[C@@H]1[C@H](F)C(=O)N[C@@H]1COc1nccc2cc(C(N)=O)c(OC)cc12 — IC50 (CAMKK2 (Homo sapiens, UniProt Q96RR4); ATP-site probe binding, ActivX profiling; THP-1 cell lysate; Lys2 site): 2.9 µM
O=S(=O)(Nc1ccc(-c2nc3cc(NS(=O)(=O)c4ccc(F)cc4)ccc3o2)cc1)c1ccc(F)cc1 — IC50 (TST; enzyme activity, inhibitor; native rhodanese counter-screen): > 100 µM
Cc1[nH]c(N)nc1/C=C/C(=O)c1cc(F)cc(F)c1 — IC50 (HVCN1 (Homo sapiens, UniProt Q96D96); proton current, inhibitor, inside-out patch clamp; Xenopus laevis oocytes; pH 6.0): 13.3 ± 1.3 µM
O=C(/C=C/c1ccc(O)cc1)CC(=O)/C=C/c1ccc(O)cc1 — IC50 (ATP2A1 (Oryctolagus cuniculus, UniProt P04191); ATPase activity, inhibitor; rabbit hind leg microsomes; pH 7.3, with: 0.22 mM ATP): 250 µM
CC[N+](CC)(CC(=O)Nc1c(C)cccc1C)Cc1ccccc1 — IC50 (uncharacterized protein (Drosophila suzukii, UniProt A0AB39ZGK5); binding, bis-ANS competition fluorescence; pH 7.4, with: bis-ANS): > 50 µM
c1ccc(Oc2ccc(Nc3ccc4ncc(OCC5CCNCC5)nc4c3)cc2)cc1 — IC50 (Protein ENL, with DOT1L (MLLT1, Homo sapiens, UniProt Q03111); AlphaScreen): 1.5 ± 0.31 µM
CC(C)C[C@H](NC(=O)[C@H](Cc1ccccc1)NC(=O)OCc1ccccc1)C(=O)C=O — IC50 (Calpain-2 catalytic subunit (Homo sapiens, UniProt P17655)): > 10 µM
CC1=C(C=O)C(C)(C)CCC1 — IC50 (uncharacterized protein (Drosophila suzukii, UniProt A0AB39ZGK5); binding, bis-ANS competition fluorescence; pH 7.4, with: bis-ANS): > 50 µM
c1ccc(COc2ccc(Nc3ccc4ncc(OCC5CCNCC5)nc4c3)cc2)cc1 — IC50 (Protein ENL, with AF4 (MLLT1, Homo sapiens, UniProt Q03111); AlphaScreen): 1.5 ± 0.11 µM
CC(C)C[C@H](NC(=O)[C@H](Cc1cccc2ccccc12)NC(=O)OCc1ccccc1)C(=O)NC(/C=C/C=O)C[C@@H]1CCNC1=O (some centres unmarked) — IC50 (ORF1 3C-like protease; protease activity, inhibitor, FRET; GI.1; 37 °C): > 10 µM
COc1c(Br)cccc1C(=O)Nc1ccc(Sc2nc3ccccc3s2)cc1 — IC50 (TST; enzyme activity, inhibitor; native rhodanese counter-screen): > 100 µM
Cc1cc(C)n2nc(C)c(-c3ccc(F)cc3)c2n1 — IC50 (fabG; enzyme activity, inhibitor, NADPH fluorescence; reverse reaction, geometric mean, with: 3-OH-decanoyl-NAC, NADP): 9.3 µM
Cc1ccc(S(=O)(=O)Nc2ccc(-c3nc4cc(NS(=O)(=O)c5ccc(C)cc5)ccc4o3)cc2)cc1 — IC50 (TST; enzyme activity, inhibitor; native rhodanese counter-screen): > 100 µM
O=C(CCCCCCC(=O)Nc1ccc(CCF)cc1)NO — IC50 (HDAC10 (Homo sapiens, UniProt Q969S8)): 0.169 µM
Cn1ncc2c(NCCO)nc(Nc3ccc(F)c(F)c3)nc21 — IC50 (fabG): 0.11 µM
OC[C@H]1O[C@H](O[C@H]2O[C@H](CO)[C@@H](O)[C@H](O)[C@H]2O)[C@H](O)[C@@H](O)[C@@H]1O — IC50 (uncharacterized protein (Drosophila suzukii, UniProt A0AB39ZCT4); binding, bis-ANS competition fluorescence; pH 7.4, with: bis-ANS): > 50 µM
CC/C=C\C/C=C\C/C=C\C/C=C\C/C=C\CCCC(=O)O — IC50 (DNA polymerase alpha catalytic subunit, with primase subunits (Bos taurus, UniProt A0A3Q1MF00); enzyme activity, inhibitor): > 100 µM
CC(=O)OCC(C)C — IC50 (uncharacterized protein (Drosophila suzukii, UniProt A0AB39ZGK5); binding, bis-ANS competition fluorescence; pH 7.4, with: bis-ANS): > 50 µM
O=S(=O)(Nc1ccc(-c2nc3cc(NS(=O)(=O)c4ccc(Br)cc4)ccc3o2)cc1)c1ccc(Br)cc1 — IC50 (TST; enzyme activity, inhibitor; native rhodanese counter-screen): > 100 µM
COc1cccc(NC(=O)c2ccc3c(c2)C(=O)NC3=O)c1 — IC50 (MAOA): > 40 µM
CCCCCCCCCCCCCCCC(=O)OC[C@H](O)[C@H]1OC(=O)C(O)=C1O — IC50 (Thyroxine 5-deiodinase (DIO3, Homo sapiens, UniProt P55073)): 32.5 µM
COc1ccc(NC(=O)c2ccc3c(c2)C(=O)NC3=O)cc1OC — IC50 (MAOA): > 40 µM
O=S(=O)(Nc1ccc(-c2nc3cc(NS(=O)(=O)c4ccc(Cl)s4)ccc3o2)cc1)c1ccc(Cl)s1 — IC50 (TST; enzyme activity, inhibitor; native rhodanese counter-screen): > 100 µM
CC(=O)Nc1ccc(C(=O)Nc2ccccc2N)cc1 — IC50 (Lysine-specific histone demethylase 1A, with CoREST (KDM1A, Homo sapiens, UniProt O60341); demethylase activity, inhibitor; LSD1-CoREST complex): > 150 µM
COc1cc(NC(=O)c2cccs2)c2ncccc2c1 — IC50 (fabG; enzyme activity, inhibitor, NADPH fluorescence; reverse reaction, geometric mean, with: 3-OH-decanoyl-NAC, NADP): 2.3 µM
CCn1c(-c2nc3cc(C(=O)N4CCC[C@@H](N)C4)cc(OC)c3n2C)cc2cccnc21 — IC50 (HRH1 (Homo sapiens, UniProt P35367); antagonist, intracellular Ca2+ luminescence): > 39.8 µM
CCCCCCC=O — IC50 (uncharacterized protein (Bradysia odoriphaga, UniProt A0A2S0X9G4); binding, competitive fluorescence displacement; pH 7.4): > 50 µM
O=C(CN1C(=O)Cc2c([nH]c3ccc(Br)cc23)-c2ccc(Cl)cc21)Nc1ccccc1 — IC50 (Trypanothione synthetase (Trypanosoma brucei brucei, UniProt Q8IEX1); enzyme activity; Trypanosoma brucei): ~30 µM
C[C@]12CC[C@@H]3c4ccc(O)cc4C[C@@H](CCCCCCCCC[S+]([O-])CCCC(F)(F)C(F)(F)F)[C@H]3[C@@H]1CC[C@@H]2O (some centres unmarked) — IC50 (NR3C2 (Homo sapiens, UniProt P08235); MR receptor activity, antagonist, cell-based): 1.19 µM
O=C(Nc1ccccc1)c1ccccc1 — IC50 (MAOA): > 40 µM
O=C(Nc1ccc(Sc2nc3ccccc3s2)cc1)c1cccc(Br)c1O — IC50 (TST; enzyme activity, inhibitor; native rhodanese counter-screen): > 100 µM
C=C1CCC2CC1C2(C)C (centres unmarked) — IC50 (uncharacterized protein (Bradysia odoriphaga, UniProt A0A2S0X9G4); binding, competitive fluorescence displacement; pH 7.4): > 50 µM
CC(=O)/C=C/C1=C(C)CCCC1(C)C — IC50 (uncharacterized protein (Drosophila suzukii, UniProt A0AB39ZCT4); binding, bis-ANS competition fluorescence; pH 7.4, with: bis-ANS): 5.89 µM
CC(C)C[C@H](NC(=O)[C@H](Cc1cccc2ccccc12)NC(=O)OCc1ccccc1)C(=O)N[C@H](CO)CCC(=O)N1CCC1 — IC50 (ORF1 3C-like protease; protease activity, inhibitor, FRET; GI.1; 37 °C): > 1 µM
COc1cc(NC(=O)c2ccc3c(c2)C(=O)NC3=O)ccc1Cl — IC50 (MAOA): > 40 µM
CCCCCC/C=C\CC/C=C\CCCCCCCCCCCCCCC — IC50 (uncharacterized protein (Drosophila suzukii, UniProt A0AB39ZCT4); binding, bis-ANS competition fluorescence; pH 7.4, with: bis-ANS): > 50 µM
O=C(Nc1ccccc1F)c1ccc2c(c1)C(=O)NC2=O — IC50 (MAOA): > 40 µM
CC(=O)c1ccccc1 — IC50 (uncharacterized protein (Bradysia odoriphaga, UniProt A0A2S0X9G4); binding, competitive fluorescence displacement; pH 7.4): > 50 µM

Repeated from above:
O=S(=O)(Nc1ccc(-c2nc3cc(NS(=O)(=O)c4ccc(Cl)s4)ccc3o2)cc1)c1ccc(Cl)s1 — IC50 (TST; enzyme activity, inhibitor; native rhodanese counter-screen): > 100 µM
c1ccc(COc2ccc(Nc3ccc4ncc(OCC5CCNCC5)nc4c3)cc2)cc1 — IC50 (Protein ENL, with AF4 (MLLT1, Homo sapiens, UniProt Q03111); AlphaScreen): 1.5 ± 0.11 µM
CC(=O)Nc1ccc(C(=O)Nc2ccccc2N)cc1 — IC50 (Lysine-specific histone demethylase 1A, with CoREST (KDM1A, Homo sapiens, UniProt O60341); demethylase activity, inhibitor; LSD1-CoREST complex): > 150 µM
Cc1cc(C)n2nc(C)c(-c3ccc(F)cc3)c2n1 — IC50 (fabG; enzyme activity, inhibitor, NADPH fluorescence; reverse reaction, geometric mean, with: 3-OH-decanoyl-NAC, NADP): 9.3 µM
CCCCCC/C=C\CC/C=C\CCCCCCCCCCCCCCC — IC50 (uncharacterized protein (Drosophila suzukii, UniProt A0AB39ZCT4); binding, bis-ANS competition fluorescence; pH 7.4, with: bis-ANS): > 50 µM
COc1cccc(NC(=O)c2ccc3c(c2)C(=O)NC3=O)c1 — IC50 (MAOA): > 40 µM
O=C(O)c1ccc(NS(=O)(=O)c2ccc(Cl)c(Cl)c2)cc1F — IC50 (Estradiol 17-beta-dehydrogenase 11 (Homo sapiens, UniProt Q8NBQ5); enzyme activity, inhibitor; with: 20-HETE ethanolamide substrate): > 100 µM
